Measured values pooled from the literature.
Lines come from different studies, so protocols differ. “And” joins repeats or separate records; there may be more than shown. Numbers after ± are the reported error.

For Cc1c(Cl)c(=O)oc2cc(OCCCCCC[Se]C#N)ccc12, the GI50 was 11 µM (WiDr, multidrug-resistant; sulforhodamine B).
CC(=O)NCSC[C@H](NC(=O)[C@@H]1CCCN1C(=O)[C@H](C)NC(=O)[C@@H](NC(=O)CNC(=O)[C@@H](NC(=O)[C@H](Cc1c[nH]c2ccccc12)NC(=O)[C@H](C)NC(=O)CNC(=O)[C@H](CO)NC(=O)[C@H](C)NC(=O)[C@@H]1CCCN1C(=O)[C@H](Cc1c[nH]c2ccccc12)NC(=O)[C@H](C)NC(=O)[C@H](C)NC(=O)[C@@H](N)Cc1ccc(O)cc1)[C@@H](C)O)[C@@H](C)O)C(=O)N[C@@H](CO)C(=O)N[C@@H](C)C(=O)NCC(=O)N[C@H](C(=O)NCCOCCOCCOCCOCCOCCOCCOCCOCCOCCOCCOCCOCCC(=O)N[C@@H](CS)C(N)=O)[C@@H](C)O has a selectivity ratio of 290 ± 65 (Huh-7 liver cancer; phage binding; relative to: targeting over control phage).
COc1ccccc1-c1ccncc1C(=O)Nc1nnc(OCc2ccc(Cl)cc2)s1 gave a colony survival of 50.5% (RPE-1 TP53-/- BRCA1-/-; 1 µM, average of 2 runs; relative to: untreated).
With CC(C)Cc1ccc(C(C)C(=O)[Se]CC(=O)Nc2cccc(C(F)(F)F)c2)cc1 (centres unmarked) the CC50 was 12.4 µM (NCI60 breast subpanel; NCI60 five-dose screen).
COc1ccc(NC(=O)c2ccc3[nH]c(-c4ccc(N(C)C)cc4)nc3c2)cn1 gave a PI-positive cells of 108 count and 167 count and 124 count (HCT116; IncuCyte; concentration not given, 24 (unit not given)).
O=C(C[Se]C(=O)c1ccco1)Nc1cccc(C(F)(F)F)c1 gave a mean TGI of 19.8 µM (NCI60 colon subpanel; NCI60 five-dose screen).
For CC1OC2OC3C4=C(OC3(C)C12O)C(=O)c1c(O)cccc1C4=O (centres unmarked), the selectivity index was 3.73 (MDA-MB-231 and Vero; MTT; relative to: CC50 Vero over EC50 MDA-MB-231).
Under “G0/G1 phase cells”, Cc1ccc(C(C)C)cc1.Cc1ccc(C(C)C)cc1.Cc1ccc(C(C)C)cc1.Cc1ccc(C(C)C)cc1.O=S(=O)([O-])C(F)(F)F.O=S(=O)([O-])C(F)(F)F.O=S(=O)([O-])C(F)(F)F.O=S(=O)([O-])C(F)(F)F.c1ccc2c3c4ccccc4c(c2c1)-c1cn(nn1)-c1cc[n+](cc1)[Ru-]1[O]c2ccc4c5c(ccc(c25)=[O+]1)=[O+][Ru-]([O]4)[n+]1ccc(cc1)-n1cc(nn1)-c1c2ccccc2c(c2ccccc12)-c1cn(nn1)-c1cc[n+](cc1)[Ru-]1[O]c2ccc4c5c(ccc(c25)=[O+]1)=[O+][Ru-]([O]4)[n+]1ccc(cc1)-n1cc-3nn1 is recorded as 44% (HepG2; concentration not given, 24 h).
For Cc1cc(Oc2nc(N3CC[C@@H](c4ccncc4)C3)ncc2F)[nH]n1, the IC50 was over 100 µM (Granta-519; cell proliferation; blood cancer).
With O=C(C[Se]C(=O)c1ccccc1)Nc1cccc(C(F)(F)F)c1 the CC50 was 39.6 µM (NCI60 colon subpanel; NCI60 five-dose screen).
For CSCC[C@H](NC(=O)[C@@H](NC(=O)[C@H](CCC(N)=O)NC(=O)[C@H](CO)NC(=O)[C@@H](N)C(C)C)[C@@H](C)O)C(=O)N[C@@H](CCCNC(=N)N)C(=O)N[C@@H](CCC(N)=O)C(=O)N[C@H](C(=O)N[C@@H](C)C(=O)N[C@H](C(=O)N1CCC[C@H]1C(=O)N[C@@H](CC(C)C)C(=O)N[C@@H](CC(C)C)C(=O)N[C@@H](Cc1c[nH]c2ccccc12)C(=O)N[C@@H](Cc1ccccc1)C(=O)N[C@@H](Cc1c[nH]c2ccccc12)C(=O)N[C@H](C(=O)NCC(=O)N[C@@H](CO)C(=O)N[C@@H](CC(C)C)C(=O)NCCOCCOCCOCCOCCOCCOCCOCCOCCOCCOCCOCCOCCC(=O)N[C@@H](CS)C(N)=O)[C@@H](C)O)C(C)C)[C@@H](C)O, the selectivity ratio was 4.2 ± 0.4 (BEAS-2B bronchial epithelial; cell binding, phage binding, refers to: output/input phage; 10 min, 37 °C; relative to: control phage).
The inhibition of N[C@H](C(=O)N1CCCC1)C1CCN(c2nccc3c(-c4ncc(Cl)cc4Cl)cccc23)CC1 is reported as 97.9% and 102% and 98.1% and 94.7% (human neutrophils; protein citrullination, inhibitor, flow cytometry, refers to: citrullinated proteins; 10 µM, added: ionomycin).
The viability of O=c1n(CCNCCOS(=O)(=O)c2ccccc2)c(=O)n(S(=O)(=O)c2ccccc2)c(=O)n1S(=O)(=O)c1ccccc1 is reported as 55.6% (A549; cell growth or viability, MTT; 12.5 µg/mL, 72 h).
The viable cells of CC1CCC2C(C)C(OC(=O)CCC(=O)N3CCC(Nc4ccc(S(=O)(=O)NC(=O)c5ccc(N6CCN(CC7=C(c8ccc(Cl)cc8)CC(C)(C)CC7)CC6)cc5Oc5cnc6[nH]ccc6c5)cc4[N+](=O)[O-])CC3)OC3OC4(C)CCC1C32OO4 (centres unmarked) is reported as 30.3% (KCL-22; annexin V/PI flow cytometry, refers to: annexin V-/PI-; 3.2 µM, 24 h).
O=C(C[Se]C(=O)c1cccs1)Nc1cccc(C(F)(F)F)c1 has a CC50 of 11.3 µM (NCI60 breast subpanel; NCI60 five-dose screen).
CSCC[C@H](N)C(=O)N[C@@H](C)C(=O)N[C@@H](Cc1c[nH]c2ccccc12)C(=O)N[C@@H](Cc1c[nH]cn1)C(=O)N[C@@H](CC(=O)O)C(=O)N[C@@H](CC(=O)O)C(=O)N[C@@H](CCC(=O)O)C(=O)N[C@@H](CCC(=O)O)C(=O)N[C@@H](Cc1ccccc1)C(=O)N[C@@H](C)C(=O)N[C@@H](CCCNC(=N)N)C(=O)N[C@@H](CCCNC(=N)N)C(=O)N[C@@H](CCCNC(=N)N)C(=O)N[C@@H](CCCNC(=N)N)C(=O)NCCCCCC(=O)NCCCCC(NC(=O)CCCCCNC(=O)[C@H](CCCNC(=N)N)NC(=O)[C@H](CCCNC(=N)N)NC(=O)[C@H](CCCNC(=N)N)NC(=O)[C@H](CCCNC(=N)N)NC(=O)[C@H](C)NC(=O)[C@H](Cc1ccccc1)NC(=O)[C@H](CCC(=O)O)NC(=O)[C@H](CCC(=O)O)NC(=O)[C@H](CC(=O)O)NC(=O)[C@H](CC(=O)O)NC(=O)[C@H](Cc1c[nH]cn1)NC(=O)[C@H](Cc1c[nH]c2ccccc12)NC(=O)[C@H](C)NC(=O)[C@@H](N)CCSC)C(=O)NCCCCC(NC(=O)C(CCCCNC(=O)CCCCCNC(=O)[C@H](CCCNC(=N)N)NC(=O)[C@H](CCCNC(=N)N)NC(=O)[C@H](CCCNC(=N)N)NC(=O)[C@H](CCCNC(=N)N)NC(=O)[C@H](C)NC(=O)[C@H](Cc1ccccc1)NC(=O)[C@H](CCC(=O)O)NC(=O)[C@H](CCC(=O)O)NC(=O)[C@H](CC(=O)O)NC(=O)[C@H](CC(=O)O)NC(=O)[C@H](Cc1c[nH]cn1)NC(=O)[C@H](Cc1c[nH]c2ccccc12)NC(=O)[C@H](C)NC(=O)[C@@H](N)CCSC)NC(=O)CCCCCNC(=O)[C@H](CCCNC(=N)N)NC(=O)[C@H](CCCNC(=N)N)NC(=O)[C@H](CCCNC(=N)N)NC(=O)[C@H](CCCNC(=N)N)NC(=O)[C@H](C)NC(=O)[C@H](Cc1ccccc1)NC(=O)[C@H](CCC(=O)O)NC(=O)[C@H](CCC(=O)O)NC(=O)[C@H](CC(=O)O)NC(=O)[C@H](CC(=O)O)NC(=O)[C@H](Cc1c[nH]cn1)NC(=O)[C@H](Cc1c[nH]c2ccccc12)NC(=O)[C@H](C)NC(=O)[C@@H](N)CCSC)C(N)=O (some centres unmarked) gave an osteoclast formation of 57% (mouse C57BL/6 BMMs; 0.1 µM, 3 days, added: RANKL; relative to: untreated control).
For CC(C)C[C@H](NC(=O)[C@H](CCC(=O)O)NC(=O)[C@@H](N)Cc1ccccc1)C(=O)N[C@@H](CCC(=O)O)C(=O)N[C@@H](CCCNC(=N)N)C(=O)N[C@@H](CCCNC(=N)N)C(=O)N[C@@H](Cc1ccccc1)C(=O)N[C@@H](CCCCN)C(=O)N[C@@H](CCC(N)=O)C(=O)N[C@@H](CCC(N)=O)C(=O)O, the invasion was 102% and 85.6% and 101% (HCT-116; transwell; concentration not given).
With O=C1C=CC(=O)c2c(O)cccc21 the selectivity index was 0.81 (HepG2; MTT; relative to: IC50 MRC-5 over IC50 HepG2).
For CC(C)(C)C(=O)OCOP(=O)(OCOC(=O)C(C)(C)C)C1CCCN(O)C1=O (centres unmarked), the CC50 was over 100 µM (U-251).
CSCC[C@H](NC(=O)[C@H](CC(C)C)NC(=O)[C@H](CCC(N)=O)NC(=O)[C@H](C)NC(=O)[C@H](Cc1c[nH]c2ccccc12)NC(=O)[C@H](Cc1ccc(O)cc1)NC(=O)[C@H](CCC(=O)O)NC(=O)[C@H](CC(C)C)NC(=O)[C@H](Cc1ccccc1)NC(=O)[C@@H](NC(=O)[C@H](CC(C)C)NC(=O)[C@H](CCCCN)NC(C)=O)[C@@H](C)O)C(=O)N[C@@H](CCC(N)=O)C(=O)N[C@@H](CCCCN)C(=O)NCCCCCC(=O)N[C@@H](CCCCN)C(=O)N[C@@H](CC(C)C)C(=O)N[C@H](C(=O)N[C@@H](Cc1ccccc1)C(=O)N[C@@H](CC(C)C)C(=O)N[C@@]1(C)CCCC=CCCC[C@@](C)(C(=O)N[C@@H](CC(C)C)C(=O)N[C@@H](CCSC)C(=O)N[C@@H](CCC(N)=O)C(=O)N[C@@H](CCCCN)C(N)=O)NC(=O)[C@H](C)NC(=O)[C@H](Cc2c[nH]c3ccccc23)NC(=O)[C@H](Cc2ccc(O)cc2)NC1=O)[C@@H](C)O: inhibition “inhibited” (U-251; cell growth, CCK-8; 16 µM).
Under “CD71 fluorescence intensity”, O=C(O)c1ccc(-c2nc(-c3ccccc3Cl)c3sccn23)cc1 is recorded as 1 (K562; erythroid differentiation, flow cytometry; 0.01 mM, 48 h, unit not given; relative to: untreated).
For CC(C)[C@H](NC(=O)[C@H](CCCNC(=N)N)NC(=O)[C@@H]1CCCN1C(=O)[C@@H](NC(=O)[C@H](C)NC(=O)[C@H](Cc1ccc(O)cc1)NC(=O)[C@H](CCC(N)=O)NC(=O)[C@H](CCCCN)NC(=O)[C@H](CCCNC(=N)N)NC(=O)[C@@H]1CCCN1C(=O)[C@H](CCC(=O)O)NC(=O)[C@@H](NC(=O)[C@H](C)N)[C@@H](C)O)[C@@H](C)O)C(=O)N[C@@H](Cc1ccccc1)C(=O)N[C@@H](Cc1c[nH]c2ccccc12)C(=O)N[C@H](C(=O)N[C@@H](CC(=O)O)C(=O)N[C@@H](C)C(=O)N1CCC[C@H]1C(=O)NCC(=O)NCCOCCOCCOCCOCCOCCOCCOCCOCCOCCOCCOCCOCCC(=O)N[C@@H](CS)C(N)=O)[C@@H](C)O, the selectivity ratio was 210 ± 53 (Huh-7 liver cancer; phage binding; relative to: targeting over control phage).
O=C(C[Se]C(=O)c1cc2ccccc2o1)Nc1cccc(C(F)(F)F)c1 gave a CC50 of 18.6 µM (NCI60 colon subpanel; NCI60 five-dose screen).

Excerpt of the above:
Under “CD71 fluorescence intensity”, O=C(O)c1ccc(-c2nc(-c3ccccc3Cl)c3sccn23)cc1 is recorded as 1 (K562; erythroid differentiation, flow cytometry; 0.01 mM, 48 h, unit not given; relative to: untreated).
O=C(C[Se]C(=O)c1cc2ccccc2o1)Nc1cccc(C(F)(F)F)c1 gave a CC50 of 18.6 µM (NCI60 colon subpanel; NCI60 five-dose screen).
